Results gathered from unrelated publications.
Numbered parts are unrelated; each lists some results of a single study.

Block 1 — technique: universal PBM; molecule type: double-stranded DNA, one strand shown; medium: in vitro; tested at: not given; direction: higher = stronger binding
Target: Sal-like protein 4, full length isoform B (SALL4, Homo sapiens, UniProt Q9UJQ4-2, residues 1-616)
Setting: 8-mer, flanks averaged, mean of replicates
Target sequence (chain): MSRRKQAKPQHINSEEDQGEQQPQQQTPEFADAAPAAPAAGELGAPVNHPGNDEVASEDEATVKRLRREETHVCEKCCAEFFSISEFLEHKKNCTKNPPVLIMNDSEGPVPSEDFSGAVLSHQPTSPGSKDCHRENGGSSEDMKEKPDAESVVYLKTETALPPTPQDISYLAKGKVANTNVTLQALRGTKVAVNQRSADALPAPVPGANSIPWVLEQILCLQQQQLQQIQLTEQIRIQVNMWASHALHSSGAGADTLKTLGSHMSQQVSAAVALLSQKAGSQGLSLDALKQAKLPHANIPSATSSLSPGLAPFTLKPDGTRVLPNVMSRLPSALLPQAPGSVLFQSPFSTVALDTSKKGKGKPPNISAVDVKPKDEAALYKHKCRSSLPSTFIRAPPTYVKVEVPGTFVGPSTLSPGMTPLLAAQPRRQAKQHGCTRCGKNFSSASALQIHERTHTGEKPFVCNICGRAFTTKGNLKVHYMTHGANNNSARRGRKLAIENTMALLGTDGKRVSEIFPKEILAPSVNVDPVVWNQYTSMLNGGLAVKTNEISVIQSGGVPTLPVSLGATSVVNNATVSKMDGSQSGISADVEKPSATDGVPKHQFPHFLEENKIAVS
For `ACGCCAGC`, the E-score was -0.31.
`GGAGAATA` has an E-score of 0.233.
`ATAGGGGC` has an E-score of -0.192.
The E-score of `ACCTAGTC` is reported as -0.0687.
The E-score of `CTCTTGAA` is reported as 0.183.
For `AATGACCG`, the E-score was -0.125.

Block 2 — technique: protein binding microarray; molecule type: double-stranded DNA, one strand shown; medium: in vitro; tested at: not given; reference: not given; direction: higher = stronger binding
Target: Histone acetyltransferase KAT6A, both winged helices, GST fusion (KAT6A, Homo sapiens, UniProt Q92794, residues 1-181)
Setting: 8-mer, flanks averaged, mean of 2 arrays, mostly near background
Residues (chain): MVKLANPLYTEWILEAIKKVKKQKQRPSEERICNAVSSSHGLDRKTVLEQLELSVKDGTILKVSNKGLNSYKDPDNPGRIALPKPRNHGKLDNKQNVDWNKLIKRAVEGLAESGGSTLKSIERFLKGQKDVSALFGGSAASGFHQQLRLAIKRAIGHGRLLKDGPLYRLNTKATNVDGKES
`GCAGGGGC` gave an E-score of 0.112.
`ACAATGCG` has an E-score of 0.167.
The E-score of `CGAGCCAC` is reported as 0.0211.
The E-score of `CCTGAGAC` is reported as -0.24.
`TCCTTCGA` has an E-score of 0.0533.
`GCAGCAGC` has an E-score of -0.0311.
For `ACTGCCCC`, the E-score was -0.0429.

Block 3 — technique: Spec-seq; molecule type: double-stranded DNA, one strand shown; medium: in vitro; tested at: not given; setting: whole probe, mean of replicates; reference: not given; direction: lower = stronger binding; constant ends, left off below: GAGTCGTCTCGTCAGCAC … CCGTAGAGCACTCAGGTC
Target: POU domain, class 5, transcription factor 1, POU domain (Pou5f1, Mus musculus, UniProt P20263, residues 131-289)
UniProt P20263, sequence (131-289, looked up): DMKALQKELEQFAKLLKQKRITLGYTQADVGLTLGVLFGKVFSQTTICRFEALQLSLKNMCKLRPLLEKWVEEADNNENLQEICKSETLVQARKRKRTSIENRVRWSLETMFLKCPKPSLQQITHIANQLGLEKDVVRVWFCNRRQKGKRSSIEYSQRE
`TCTCTAAT`: “relative binding energy” 0.617 ln ratio.
Under “relative binding energy”, `ATGCACTC` is recorded as 0.19 ln ratio.
Under “relative binding energy”, `ATGCATTT` is recorded as -1.02 ln ratio.
`ACCATAAT`: “relative binding energy” 0.34 ln ratio.
Under “relative binding energy”, `CAAGTAAT` is recorded as 0.823 ln ratio.
Under “relative binding energy”, `ATGCTCAT` is recorded as 0.449 ln ratio.
`GCAATAAT` — result for “relative binding energy”: 0.163 ln ratio.

Other studies, line by line
`PhoQ, residues 284 288 289 292 302 303 TVTVVA` gave a fold induction of 2.17 (PhoP, residues 12 14 15 18 19 NQAHL (Escherichia coli, UniProt P23836); Sort-seq, refers to: YFP reporter; E. coli; PhoQ-PhoP variant library, with: 10 µM Mg2+; reference: high Mg2+ state, higher = stronger signaling).

Excerpt of the above (block 2):
`TCCTTCGA` has an E-score of 0.0533.
`GCAGCAGC` has an E-score of -0.0311.
